Published values of several laboratories.
Every numbered part comes from another study and shows a few of its results, in no order. Positions count from the first letter of the parent shown.

Study 1
Target: Histone acetyltransferase KAT6A, winged helix 1, GST fusion (KAT6A, Homo sapiens, UniProt Q92794, residues 1-85)
Technique: protein binding microarray
Form: double-stranded DNA, one strand shown
Sample: in vitro
Concentration: not given
Notes: 8-mer, flanks averaged, mean of 2 arrays, mostly near background
Baseline: not given
Reading: higher = stronger binding
Residues (chain): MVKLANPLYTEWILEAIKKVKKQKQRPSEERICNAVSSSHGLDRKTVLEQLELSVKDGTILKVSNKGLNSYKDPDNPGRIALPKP
`CTTGCGGC` gave an E-score of 0.192.
With `CAAGGTCG` the E-score was -0.0805.
`GTGCTGGA` has an E-score of -0.125.
`ACTACAGG` gave an E-score of -0.0229.
`GACCCGAA` gave an E-score of 0.0198.
`ATGGGAGA` gave an E-score of -0.31.
The E-score of `CCAATCAG` is reported as -0.309.

Study 2
Target: Sal-like protein 4, full length isoform B (SALL4, Homo sapiens, UniProt Q9UJQ4-2, residues 1-616)
Technique: universal PBM
Form: double-stranded DNA, one strand shown
Sample: in vitro
Concentration: not given
Notes: 8-mer, flanks averaged, mean of replicates
Reading: higher = stronger binding
With `GGCCTCCC` the E-score was -0.344.
The E-score of `AGCTAGCA` is reported as -0.17.
`AGTGCTGG` has an E-score of -0.146.
With `AGTGAGAT` the E-score was 0.0123.

Study 3
Target: CCNA1, cyclin fold, Cln2 fusion (human)
Technique: yeast growth competition, sequencing
Sample: yeast
Notes: weak parent motif
Baseline: not given
Reading: higher = stronger binding
Starting sequence: PKN2 docking peptide (human); VSAVQKLDFSDTM
For `V1T`, “normalised enrichment score” read 0.112.
`F9C` — result for “normalised enrichment score”: 0.156.
`V4W`: “normalised enrichment score” 0.0918.
`V1Y`: “normalised enrichment score” 0.315.
`V1G`: “normalised enrichment score” 0.0335.

Mixed results
With `PhoQ, residues 284 288 289 292 302 303 GTAMQF` the fold induction was 98.5 (PhoP, residues 12 14 15 18 19 LHTVM (Escherichia coli, UniProt P23836); Sort-seq, measured: YFP reporter; E. coli; PhoQ-PhoP variant library, with: 10 µM Mg2+; baseline: high Mg2+ state, higher = stronger signaling).
